Results collected from several papers.
Each line is one published result; not all experiments were run side by side. Numbers after ± are the reported error.
Cell line: MDA-MB-231

CCc1c(C)c2ccc(OCC(=O)NNC(=S)Nc3ccccc3)c(C)c2oc1=O
IC50 (cell viability, MTT): 88.9 µM

O=c1ccn(Cc2cn(-c3c4ccccc4nc4ccccc34)nn2)c(=O)[nH]1
growth percentage (NCI60 single dose screen; 10 µM): 89.4%

CCCCN1CCN(c2ccc3nc(-c4ccc5nc(-c6cc(OC)ccc6OC)[nH]c5c4)[nH]c3c2)CC1
growth percent (SRB; 10 µM, 48 h): 110%

CC(C)(C)OC(=O)CC[C@H](NC(=O)c1cc(Cl)ccc1OCCNC(=O)OC(C)(C)C)C(=O)Nc1ccc([N+](=O)[O-])cc1Cl
antiproliferative activity (up to 10 µM, 72 h): inactive

CC(=NNC(=O)COc1ccc2c(C)c(Cc3ccccc3)c(=O)oc2c1C)c1ccc(Br)cc1
IC50 (cell viability, MTT): 47.2 µM

O=C(NCc1ccc(CNS(=O)(=O)c2ccc3c(c2)CCO3)cc1)c1cccnc1
inhibition (Matrigel invasion; 0.1 µM, 22 h, added: CXCL12α 200 ng/mL): > 60%

C=C1CN(S(=O)(=O)c2ccc(C)cc2)CCc2cc(-c3ccccc3)cc(n2)CCN(S(=O)(=O)c2ccc(C)cc2)C1.Cl
mammosphere formation (4 µM, 48 h, added: progranulin 1 µg/mL): decreased

Cc1ccc(CNC(=O)Cn2cc(CSc3nc4ccccc4[nH]3)nn2)cc1
viability (MTT; 31.3 ppm): 12.4%

Cc1cc(=O)[nH]c(=O)n1Cc1cn(-c2c3ccccc3nc3ccccc23)nn1
growth percentage (NCI60 single dose screen; 10 µM): 77.3%

CCCCCC(=O)Oc1c(C)c(O)c(C(=O)/C=C/c2ccccc2)c(OC)c1C
selectivity index (reference: CL over MDA-MB-231): 1.3

C#C[C@@]1(O)[C@@H](CO)O[C@@H](n2cc(Br)c3c(N)ncnc32)[C@@H]1O
TGI (cell growth, SRB): > 100 µM

OCc1ccc(Nc2ccc3c(Nc4cccc(C(F)(F)F)c4)ncnc3c2)cc1
S phase cells (IC50, 24 h): 65.9%

CCCN1CCN(c2ccc3[nH]c(-c4ccc5[nH]c(-c6ccc(OCC)c(OCC)c6)nc5c4)nc3c2)CC1
growth percent (SRB; 10 µM, 48 h): -80.2%

CCCNC(=O)[C@H]1O[C@@H]1C(=O)N[C@H](C(=O)N1CCC[C@H]1C(=O)OC)[C@@H](C)CC
EC50 (cell viability, MTT; concentration not given, 4 h, irradiated 15 min up to 470 nm): > 100 µM

COc1cc(C2C3=C(COC3=O)N(CCO)c3cc4c(cc32)CCC4)cc(OC)c1OC (centres unmarked)
clonogenic growth (colony formation; 0.1 to 0.5 µM, 6 to 10 days): inhibited

COc1cccc2c1C(=O)c1c(O)c3c(c(O)c1C2=O)C[C@@](O)(C(=O)CO)C[C@@H]3O[C@H]1C[C@H](N)[C@H](O)[C@H](C)O1
apoptotic cells (annexin V/PI; concentration not given, 48 h): 21%

COc1c(C)c(OS(=O)(=O)c2ccc3ccccc3c2)c(C)c(O)c1C(=O)/C=C/c1ccccc1
selectivity index (reference: CL over MDA-MB-231): 0.76

Cc1[nH]c2ccccc2c1C1=C(Cl)C(=O)C(Cl)=C(N2CCOCC2)C1=O
G1 phase cells (PI flow cytometry; 10 µM): 16.5%

CCCOc1ccc2c(C)c(CC)c(=O)oc2c1C
IC50 (cell viability, MTT): 808 µM

COc1cnc2cccc(N3CCc4c(cc(Cn5ccnc5C)cc4-c4cn(C)nc4C(F)(F)F)C3=O)c2c1
EC50 (cell growth, inhibitor; 120 h): > 30 µM

COc1ccc(COC[C@@](O)(CNCc2ccc(F)cc2)[C@@H]2CC[C@@H](C)C[C@H]2OCc2ccc(OC)cc2)cc1
IC50 (cell growth, inhibitor, MTT; 72 h): 1.91 µM

CCCCN1CCN(c2ccc3[nH]c(-c4ccc5[nH]c(-c6ccc(OCC)c(OCC)c6)nc5c4)nc3c2)CC1
growth percent (SRB; 10 µM, 48 h): -81.2%

O=P(O)(O)C(O)(Cn1ccnc1)P(=O)(O)O
viability (AlamarBlue; 1.9 µM, 24 h; reference: control): 98 ± 2%

O=C(CCCCCCCC(=O)Nc1ccc(NC2=C(Cl)C(=O)c3cccnc3C2=O)cc1)NO
growth inhibition (MTT; 8 µM, 48 h): 23%

O=C1NC(c2ccccc2)(c2ccccc2)C(=O)N1Cc1cn(-c2cc3ccccc3oc2=O)nn1
growth percentage (NCI60 single dose screen; 10 µM): 75.9%

COc1ccc(S(=O)(=O)ON=C2C=C(C)C(=O)C(C)=C2)cc1
sub-G1 cells (flow cytometry; 10 µM, 24 h; reference: DMSO): increased

CC(C)[C@H](NC(=O)c1cc(Cl)ccc1OCCNC(=O)OC(C)(C)C)C(=O)Nc1ccc([N+](=O)[O-])cc1Cl
Bax activation (Western blot; 1, 5, 10 µM, 48 h): increased

COc1c(C)c(OC)c(C(=O)/C=C/c2ccccc2)c(OC)c1C
selectivity index (reference: CL over MDA-MB-231): 0.63

CN1C(=O)C(=O)c2cc3c(c4c2c1cc1ccccc14)OCO3
inhibition (cytotoxicity, MTT; 50 µg/mL, 48 h): < 50%

CO[C@H]1[C@H](O[C@H]([C@H]2O[C@@H](n3ccc(=O)[nH]c3=O)[C@H](O)[C@@H]2O)[C@H](NCCCNC(=O)[C@@H](NC(=O)[C@@H](NC(=O)N[C@H](C(=O)O)C(C)C)[C@@H]2CCN=C(N)N2)[C@@H](OC(=O)CCCCCCCCCCCCN(O)C(=N)N)C(C)C)C(=O)O)O[C@H](CN)[C@H]1O
lowest effective concentration (apoptosis, staining, annexin V, 7-AAD): 0.25 µM

C#C[C@@]1(O)[C@@H](CO)O[C@@H](n2cc(F)c3c(N)ncnc32)[C@@H]1O
TGI (cell growth, SRB): 2.98 µM

Nc1ccccc1NC(=O)c1ccc(CNc2ccc(NC3=C(Cl)C(=O)c4cccnc4C3=O)cc2)cc1
late apoptotic cells (annexin V/PI staining, refers to: annexin V+/PI+; 8 µM, 72 h): 2.75%

CCCCN1CCN(c2ccc3[nH]c(-c4ccc5[nH]c(-c6ccc(C(F)(F)F)cc6)nc5c4)nc3c2)CC1
growth percent (SRB; 10 µM, 48 h): -88.9%

C=CCOc1c(C)c(O)c(C(=O)/C=C/c2ccccc2)c(OC)c1C
selectivity index (reference: CL over MDA-MB-231): 0.81

Cc1cc(NS(=O)(=O)c2ccc(NC(=O)/C(C#N)=C/c3cccnc3)cc2)no1
selectivity index (cytotoxicity, MTT; reference: HSF over MDA-MB-231 IC50): > 1.09

CC(C)(C)OC(=O)N1CCC(Oc2ccc(Cl)cc2C(=O)N[C@@H](Cc2ccccc2)C(=O)Nc2ccc([N+](=O)[O-])cc2Cl)CC1
antiproliferative activity (up to 10 µM, 72 h): inactive

Cc1cc(NS(=O)(=O)c2ccc(NC(=O)/C(C#N)=C/c3ccc(N4CCCC4)cc3)cc2)no1
selectivity index (cytotoxicity, MTT; reference: HSF over MDA-MB-231 IC50): > 1.83

CC[C@@]1([C@@H]2O[C@@H]([C@H]3O[C@@](O)(CO)[C@H](C)C[C@@H]3C)C[C@@H]2C)CC[C@H]([C@]2(C)CC[C@]3(C[C@H](O)[C@@H](C)[C@@H]([C@@H](C)[C@@H](OC)[C@H](C)C(=O)O)O3)O2)O1
CD44+/CD24− cell reduction (flow cytometry; half IC50, 72 h; reference: DMSO): ~11%

Excerpt of the above:
CO[C@H]1[C@H](O[C@H]([C@H]2O[C@@H](n3ccc(=O)[nH]c3=O)[C@H](O)[C@@H]2O)[C@H](NCCCNC(=O)[C@@H](NC(=O)[C@@H](NC(=O)N[C@H](C(=O)O)C(C)C)[C@@H]2CCN=C(N)N2)[C@@H](OC(=O)CCCCCCCCCCCCN(O)C(=N)N)C(C)C)C(=O)O)O[C@H](CN)[C@H]1O
lowest effective concentration (apoptosis, staining, annexin V, 7-AAD): 0.25 µM

Cc1cc(NS(=O)(=O)c2ccc(NC(=O)/C(C#N)=C/c3ccc(N4CCCC4)cc3)cc2)no1
selectivity index (cytotoxicity, MTT; reference: HSF over MDA-MB-231 IC50): > 1.83

CCCCCC(=O)Oc1c(C)c(O)c(C(=O)/C=C/c2ccccc2)c(OC)c1C
selectivity index (reference: CL over MDA-MB-231): 1.3

CCCCN1CCN(c2ccc3nc(-c4ccc5nc(-c6cc(OC)ccc6OC)[nH]c5c4)[nH]c3c2)CC1
growth percent (SRB; 10 µM, 48 h): 110%

C#C[C@@]1(O)[C@@H](CO)O[C@@H](n2cc(Br)c3c(N)ncnc32)[C@@H]1O
TGI (cell growth, SRB): > 100 µM
